Measurements of several laboratories.
Each line is one published result; not all experiments were run side by side. “And” joins repeats or separate records; there may be more than shown.
Target: Protein kinase C zeta type (PRKCZ, Homo sapiens, UniProt Q05513)

| Compound | test | setting | scale | quantity | value |
| --- | --- | --- | --- | --- | --- |
| O=C=[N][Ru-4]123([n]4c5ccc(O)cc5c5c6c(c7cc(F)c[n+]1c7c54)C(=O)NC6=O)[S+]1CC[S+]2CC[S+]3CC1 (stereo not shown) | enzyme activity | 100 nM, human enzyme, added: 10 µM ATP | reference: untreated | remaining activity | 96% |
| CN1CCN(Cc2ccc(-c3ccc(CO[C@H]4CCC[C@@H]4NC(=O)c4cc(-c5cnn(C)c5)cnc4N)cc3)cc2)CC1 | enzyme activity, inhibitor | 0.1 µM | – | inhibition | 6% |
| Cc1cccc(O[C@H]2CCC[C@@H](C(C)CNCc3ccncc3)C2)c1 (relative stereo) | enzyme activity | 10 µM | – | inhibition | -16% |
| CCn1cc(C(=O)O)c(=O)c2c(N)c(F)c(NC3CCCCC3)cc21 | kinase activity | 0.1 µM, added: ATP at Km | – | inhibition | 1.5% |
| COCC12C(=O)NC3C4(C(OC)CC1O)C1CC5(O)C(OC)C(O)C(OC(C)=O)(C1C5OC(=O)c1ccccc1)C3(O)C(OC)C24 (stereo not shown) | kinase activity, inhibitor, ProQinase kinase profiling | 25 µM | reference: control | remaining activity | 81% and 83% |
| CNC(=O)C[C@H](Cc1ccc(C#N)cc1)NC(=O)c1cc(-c2ccc(CN[C@H](C)c3ccc(C)cc3)o2)ccc1Cl | enzyme activity, inhibitor | 1 µM | – | activity vs control | 94% |
| CN1CC[C@@H](COc2cnc(C#N)cc2-c2ccn3nc(NC(=O)C4CC4)cc3c2)C1 | enzyme activity, inhibitor | 1 µM | – | inhibition | 1% |
| Nc1ncc(-c2cc(-c3cnn(CC(F)(F)F)c3)ncc2F)nc1C(=O)NC1CNCC(F)C1 (stereo not shown) | enzyme activity | 1 µM | reference: DMSO control | remaining activity | 96.2% |
| O=C(Cc1ccc(OCc2ccccc2)cc1)NC1(C(=O)O)CCN(C(=O)c2ccc(-c3cccc(Cl)c3)cc2)CC1 | enzyme activity, inhibitor | 10 µM | – | activity vs control | 101% |
| NC(=O)[C@@H](O)C[C@H]1CCc2sc3ncnc(O[C@H]4CC[C@H](N5CCOCC5)CC4)c3c21 | enzyme activity, inhibitor | 10 µM | – | inhibition | -2% |
| C=CC(=O)N1Cc2nc(-c3cc(-c4cc(Cl)cnc4Cl)c(F)cc3F)n(-c3ccncn3)c2C1 | cell-free assay | 1 µM | – | inhibition | 6.2% |
| Cc1cccc(-c2ccc3nc(NC(=O)C4CCOCC4)nn3c2)c1 | enzyme activity, Dundee kinase panel | 10 µM | – | remaining activity | 87% |
| C=CC(=O)Nc1cccc(-c2cnc3[nH]cc(C(=O)NC(C)(C)C)c3n2)c1 | kinase activity | 0.1 µM | – | inhibition | -7% and -11% |
| O=c1c(-c2ccc(Cl)c(CN3CCOCC3)c2)coc2cc(O)ccc12 | enzyme activity, inhibitor | 1 µM | – | remaining activity | 107% |
| Nc1nc(Nc2ccccc2)sc1C(=O)c1ccccc1 | enzyme activity, inhibitor | 10 µM | – | remaining activity | 33% |
| Cc1nc2c(F)cc(-c3nc(Nc4ccc(CNC(=O)CCCCCCC(=O)NO)cc4)ncc3F)cc2n1C(C)C | enzyme activity, inhibitor | 1 µM | – | inhibition | 13% |
| Cc1cccc(-c2ccc3nc(NC(=O)C4CCCO4)nn3c2)c1 (stereo not shown) | enzyme activity, Dundee kinase panel | 10 µM | – | remaining activity | 88% |
| COc1ccc(NC(=O)Nc2ccc3c(c2)C(=O)N(C(C)CO)CC(C)C(CN(C)Cc2ccc4c(c2)OCO4)O3)cc1 (stereo not shown) | kinase activity, KinaseProfiler | 0.03 µM, species human | reference: control | remaining activity | 96% |
| NC(=O)C[C@H]1CCc2sc3ncnc(O[C@H]4CC[C@H](N5CCOCC5)CC4)c3c21 | enzyme activity, inhibitor | 10 µM | – | inhibition | -1% |

Some of these lines once more:
| Compound | test | setting | scale | quantity | value |
| --- | --- | --- | --- | --- | --- |
| O=C(Cc1ccc(OCc2ccccc2)cc1)NC1(C(=O)O)CCN(C(=O)c2ccc(-c3cccc(Cl)c3)cc2)CC1 | enzyme activity, inhibitor | 10 µM | – | activity vs control | 101% |
